Assay results pooled from the literature.
Protocols differ between the studies behind these lines. Values joined by “and” are separate records of one study, mostly repeats; a detail may differ. Numbers after ± are the reported error.
PTPN1: Tyrosine-protein phosphatase non-receptor type 1 (PTPN1, Homo sapiens, UniProt P18031)
MDM4: Protein Mdm4 (MDM4, Homo sapiens, UniProt O15151)

Sequences of proteins named here, by UniProt entry; tags and fusion partners are left off. Residues count along the entry.
UniProt P18031, 1-321 limits assumed: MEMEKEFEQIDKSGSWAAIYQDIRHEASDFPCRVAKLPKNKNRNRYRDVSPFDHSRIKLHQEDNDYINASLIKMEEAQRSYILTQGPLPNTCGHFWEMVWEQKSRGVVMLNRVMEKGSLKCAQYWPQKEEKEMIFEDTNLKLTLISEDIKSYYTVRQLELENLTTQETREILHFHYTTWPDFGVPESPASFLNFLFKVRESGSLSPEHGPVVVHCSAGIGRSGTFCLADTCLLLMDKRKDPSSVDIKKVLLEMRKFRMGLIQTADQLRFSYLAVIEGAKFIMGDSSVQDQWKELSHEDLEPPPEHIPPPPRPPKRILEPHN
UniProt O15151, 23-111 limits assumed: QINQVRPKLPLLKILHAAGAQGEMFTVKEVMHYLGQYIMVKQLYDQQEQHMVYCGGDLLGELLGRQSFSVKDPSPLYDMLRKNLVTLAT
UniProt Q00959, 23-1464 limits assumed: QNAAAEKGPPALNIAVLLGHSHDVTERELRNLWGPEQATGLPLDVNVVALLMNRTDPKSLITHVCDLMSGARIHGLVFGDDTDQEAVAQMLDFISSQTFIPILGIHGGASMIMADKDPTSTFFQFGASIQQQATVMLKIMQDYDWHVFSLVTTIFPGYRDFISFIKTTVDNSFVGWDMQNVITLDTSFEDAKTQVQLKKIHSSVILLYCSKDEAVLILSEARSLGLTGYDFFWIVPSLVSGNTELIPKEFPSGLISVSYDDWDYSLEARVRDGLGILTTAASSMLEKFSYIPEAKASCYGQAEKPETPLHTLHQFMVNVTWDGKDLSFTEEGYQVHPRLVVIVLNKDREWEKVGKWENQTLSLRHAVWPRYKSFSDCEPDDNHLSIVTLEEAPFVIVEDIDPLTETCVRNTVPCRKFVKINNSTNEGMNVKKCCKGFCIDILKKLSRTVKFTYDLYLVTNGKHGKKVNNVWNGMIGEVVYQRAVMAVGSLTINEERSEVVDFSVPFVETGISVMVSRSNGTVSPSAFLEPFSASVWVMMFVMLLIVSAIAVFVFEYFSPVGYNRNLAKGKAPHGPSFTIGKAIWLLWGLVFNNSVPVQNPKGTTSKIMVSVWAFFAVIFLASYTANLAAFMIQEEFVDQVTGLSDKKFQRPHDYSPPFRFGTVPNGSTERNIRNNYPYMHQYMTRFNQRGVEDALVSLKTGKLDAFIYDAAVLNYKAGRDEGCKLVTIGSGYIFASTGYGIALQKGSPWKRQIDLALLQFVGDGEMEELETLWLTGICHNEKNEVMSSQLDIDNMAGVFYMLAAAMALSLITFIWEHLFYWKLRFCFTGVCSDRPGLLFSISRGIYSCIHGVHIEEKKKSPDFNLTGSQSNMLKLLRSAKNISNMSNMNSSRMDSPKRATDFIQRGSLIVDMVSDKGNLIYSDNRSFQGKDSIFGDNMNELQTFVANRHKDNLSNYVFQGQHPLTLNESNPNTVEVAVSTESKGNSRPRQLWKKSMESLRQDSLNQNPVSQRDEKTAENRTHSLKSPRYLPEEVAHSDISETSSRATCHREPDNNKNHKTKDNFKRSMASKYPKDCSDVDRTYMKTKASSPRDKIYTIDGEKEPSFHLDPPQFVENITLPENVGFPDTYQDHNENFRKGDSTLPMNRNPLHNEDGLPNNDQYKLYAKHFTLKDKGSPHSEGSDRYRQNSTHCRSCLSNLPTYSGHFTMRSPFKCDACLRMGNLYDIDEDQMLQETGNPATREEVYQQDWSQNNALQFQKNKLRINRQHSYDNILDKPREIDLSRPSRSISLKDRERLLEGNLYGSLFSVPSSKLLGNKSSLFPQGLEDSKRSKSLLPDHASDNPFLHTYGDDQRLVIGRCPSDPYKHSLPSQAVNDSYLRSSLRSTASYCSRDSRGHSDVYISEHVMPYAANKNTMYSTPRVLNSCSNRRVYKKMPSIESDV
UniProt P61981, whole entry: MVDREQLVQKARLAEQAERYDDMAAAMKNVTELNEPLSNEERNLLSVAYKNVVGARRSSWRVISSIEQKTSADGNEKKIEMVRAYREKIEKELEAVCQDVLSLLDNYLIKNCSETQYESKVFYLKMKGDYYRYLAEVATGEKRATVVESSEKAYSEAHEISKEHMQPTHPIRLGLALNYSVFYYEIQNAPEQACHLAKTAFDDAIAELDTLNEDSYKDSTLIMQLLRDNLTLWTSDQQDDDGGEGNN
UniProt Q99250, whole entry: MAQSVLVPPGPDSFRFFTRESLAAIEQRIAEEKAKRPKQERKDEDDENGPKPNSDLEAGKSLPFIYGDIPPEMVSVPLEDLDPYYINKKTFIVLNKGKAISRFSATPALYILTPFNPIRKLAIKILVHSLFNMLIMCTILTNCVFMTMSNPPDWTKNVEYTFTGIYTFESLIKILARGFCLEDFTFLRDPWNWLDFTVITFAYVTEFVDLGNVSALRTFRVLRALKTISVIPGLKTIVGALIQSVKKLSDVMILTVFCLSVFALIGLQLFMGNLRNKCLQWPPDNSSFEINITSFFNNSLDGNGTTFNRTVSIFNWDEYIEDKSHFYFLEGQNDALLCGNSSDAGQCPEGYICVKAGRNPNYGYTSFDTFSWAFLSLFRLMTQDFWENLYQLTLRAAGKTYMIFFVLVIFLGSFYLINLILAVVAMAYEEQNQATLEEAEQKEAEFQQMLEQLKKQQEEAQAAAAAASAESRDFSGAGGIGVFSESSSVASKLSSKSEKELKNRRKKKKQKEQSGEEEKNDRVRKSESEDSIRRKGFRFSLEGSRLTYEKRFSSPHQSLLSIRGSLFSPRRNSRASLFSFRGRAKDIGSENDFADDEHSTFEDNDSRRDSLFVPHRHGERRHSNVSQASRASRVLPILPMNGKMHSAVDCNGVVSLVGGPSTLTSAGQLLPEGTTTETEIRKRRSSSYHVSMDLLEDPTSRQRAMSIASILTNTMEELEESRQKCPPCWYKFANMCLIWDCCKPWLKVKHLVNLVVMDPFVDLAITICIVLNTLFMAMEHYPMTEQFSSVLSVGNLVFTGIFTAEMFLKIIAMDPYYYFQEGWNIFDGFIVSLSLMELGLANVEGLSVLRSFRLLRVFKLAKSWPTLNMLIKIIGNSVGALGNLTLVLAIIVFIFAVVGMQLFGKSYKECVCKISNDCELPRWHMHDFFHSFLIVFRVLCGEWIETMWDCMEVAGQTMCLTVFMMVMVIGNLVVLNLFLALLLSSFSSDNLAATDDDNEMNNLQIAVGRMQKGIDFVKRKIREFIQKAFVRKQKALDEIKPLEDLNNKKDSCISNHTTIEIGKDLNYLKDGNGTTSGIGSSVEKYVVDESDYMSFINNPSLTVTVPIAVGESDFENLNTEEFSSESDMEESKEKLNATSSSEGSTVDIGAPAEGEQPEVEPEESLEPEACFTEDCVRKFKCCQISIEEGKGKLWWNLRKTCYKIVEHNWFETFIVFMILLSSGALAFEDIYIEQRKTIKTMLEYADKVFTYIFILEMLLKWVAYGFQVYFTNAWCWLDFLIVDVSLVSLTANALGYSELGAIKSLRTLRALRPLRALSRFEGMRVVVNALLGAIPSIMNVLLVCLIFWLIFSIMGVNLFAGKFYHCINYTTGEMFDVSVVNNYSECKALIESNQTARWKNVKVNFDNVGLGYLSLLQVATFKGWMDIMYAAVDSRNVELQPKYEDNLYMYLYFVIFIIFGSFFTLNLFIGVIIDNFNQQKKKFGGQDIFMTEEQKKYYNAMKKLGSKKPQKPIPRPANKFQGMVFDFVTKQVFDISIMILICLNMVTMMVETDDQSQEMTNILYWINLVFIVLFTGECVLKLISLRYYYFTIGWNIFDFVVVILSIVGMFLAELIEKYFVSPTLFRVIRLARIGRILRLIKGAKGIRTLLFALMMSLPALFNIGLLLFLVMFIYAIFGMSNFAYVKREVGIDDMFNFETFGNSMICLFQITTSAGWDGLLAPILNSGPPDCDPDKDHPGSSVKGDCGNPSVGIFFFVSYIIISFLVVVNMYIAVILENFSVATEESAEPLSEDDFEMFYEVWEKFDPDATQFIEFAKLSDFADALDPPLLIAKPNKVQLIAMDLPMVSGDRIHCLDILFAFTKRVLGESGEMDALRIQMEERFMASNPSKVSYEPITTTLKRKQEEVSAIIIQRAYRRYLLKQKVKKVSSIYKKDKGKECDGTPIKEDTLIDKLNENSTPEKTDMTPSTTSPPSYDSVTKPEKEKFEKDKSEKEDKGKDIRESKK
UniProt P16083, whole entry: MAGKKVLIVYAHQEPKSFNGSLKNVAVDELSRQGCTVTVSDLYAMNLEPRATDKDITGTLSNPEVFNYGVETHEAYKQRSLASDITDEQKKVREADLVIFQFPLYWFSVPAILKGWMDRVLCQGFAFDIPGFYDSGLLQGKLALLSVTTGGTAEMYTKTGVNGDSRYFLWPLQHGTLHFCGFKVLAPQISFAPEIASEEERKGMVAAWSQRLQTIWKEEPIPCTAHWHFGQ
UniProt Q3E9C0, whole entry: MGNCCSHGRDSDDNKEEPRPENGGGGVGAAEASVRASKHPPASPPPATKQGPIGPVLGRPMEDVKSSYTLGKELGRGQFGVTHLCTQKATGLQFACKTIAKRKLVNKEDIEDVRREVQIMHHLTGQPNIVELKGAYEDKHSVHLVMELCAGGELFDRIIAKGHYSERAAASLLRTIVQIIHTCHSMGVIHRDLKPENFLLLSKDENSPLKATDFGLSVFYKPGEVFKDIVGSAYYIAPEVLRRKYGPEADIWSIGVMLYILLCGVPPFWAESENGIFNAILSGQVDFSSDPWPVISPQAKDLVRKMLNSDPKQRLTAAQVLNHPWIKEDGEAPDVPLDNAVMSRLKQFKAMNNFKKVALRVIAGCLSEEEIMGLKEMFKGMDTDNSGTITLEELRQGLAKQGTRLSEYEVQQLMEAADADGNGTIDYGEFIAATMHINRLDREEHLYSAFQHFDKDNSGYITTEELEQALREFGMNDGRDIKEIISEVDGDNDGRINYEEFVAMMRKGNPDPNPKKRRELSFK
UniProt O60704, 25-377 limits assumed: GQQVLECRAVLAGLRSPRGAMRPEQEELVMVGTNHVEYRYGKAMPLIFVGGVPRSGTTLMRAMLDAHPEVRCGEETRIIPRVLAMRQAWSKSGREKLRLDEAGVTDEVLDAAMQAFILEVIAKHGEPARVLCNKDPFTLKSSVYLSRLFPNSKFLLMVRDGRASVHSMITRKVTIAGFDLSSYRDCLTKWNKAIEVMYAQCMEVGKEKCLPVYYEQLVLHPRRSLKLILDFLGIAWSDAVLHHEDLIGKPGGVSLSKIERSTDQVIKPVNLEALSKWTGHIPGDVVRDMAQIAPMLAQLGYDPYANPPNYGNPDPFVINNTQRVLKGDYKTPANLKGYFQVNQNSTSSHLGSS
UniProt P51570, whole entry: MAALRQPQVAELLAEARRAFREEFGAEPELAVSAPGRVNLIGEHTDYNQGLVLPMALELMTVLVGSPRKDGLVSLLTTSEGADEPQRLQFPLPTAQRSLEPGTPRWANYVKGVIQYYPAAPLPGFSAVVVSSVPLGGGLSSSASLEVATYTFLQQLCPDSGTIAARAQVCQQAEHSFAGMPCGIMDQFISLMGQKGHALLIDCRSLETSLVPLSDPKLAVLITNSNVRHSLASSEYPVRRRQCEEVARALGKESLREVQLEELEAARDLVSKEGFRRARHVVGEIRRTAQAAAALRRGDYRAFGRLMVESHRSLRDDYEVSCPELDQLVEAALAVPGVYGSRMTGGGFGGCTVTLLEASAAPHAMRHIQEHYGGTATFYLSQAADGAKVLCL
UniProt Q16539, whole entry: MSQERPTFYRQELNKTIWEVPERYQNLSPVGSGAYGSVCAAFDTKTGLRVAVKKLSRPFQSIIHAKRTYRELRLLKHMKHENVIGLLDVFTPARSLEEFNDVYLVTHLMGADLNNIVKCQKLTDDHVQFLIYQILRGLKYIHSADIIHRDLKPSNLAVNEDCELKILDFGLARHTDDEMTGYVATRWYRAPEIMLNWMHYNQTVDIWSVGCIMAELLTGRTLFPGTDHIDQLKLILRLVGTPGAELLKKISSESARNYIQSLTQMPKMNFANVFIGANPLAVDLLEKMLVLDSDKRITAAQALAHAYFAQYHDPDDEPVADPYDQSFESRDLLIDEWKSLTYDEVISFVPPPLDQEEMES

Structure (SMILES)	tested on	test	system	setting	how to read	endpoint	value
CC(=O)N[C@@H](C)C(=O)N[C@@H](Cc1ccc(O)cc1)C(=O)N[C@H](C(=O)N[C@@H](CCC(=O)O)C(=O)N[C@@H](Cc1ccc(OP(=O)(O)O)cc1)C(=O)N[C@H](C(=O)N[C@@H](Cc1ccc(OP(=O)(O)O)cc1)C(=O)N[C@@H](C)C(=O)N[C@@H](C)C(N)=O)[C@@H](C)O)[C@@H](C)O	PTPN1	substrate, continuous UV	–	pH 7.4, multiply phosphorylated peptides apparent	–	Km	2.9 ± 0.5 µM
NC12CC3CC(F)(CC(C1)c1ccccc13)C2	Glutamate NMDA receptor; Grin1/Grin2a (Grin1/Grin2a, Rattus norvegicus, UniProt P35439+Q00959)	ion current, channel blocker, whole-cell patch clamp	tsA201	10 µM, -60 mV, with: 100 µM NMDA, 10 µM glycine	–	inhibition	69.1 ± 1.2%
CC(=O)NCCCC[C@H](NC(=O)[C@H](CCCCNC(C)=O)NC(=O)[C@H](Cc1c[nH]cn1)NC(=O)[C@H](CCCNC(=N)N)NC(C)=O)C(=O)Nc1ccc2c(C)cc(=O)oc2c1	Protein deacetylase HDAC6 (HDAC6, Homo sapiens, UniProt Q9UBN7)	deacetylation, substrate	–	25 °C, with: 10 to 50 nM enzyme	–	kcat/KM	17000 ± 5000 M⁻¹ s⁻¹
CC(C)C[C@H](NC(=O)[C@@H](NC(=O)[C@H](CC(C)C)NC(=O)[C@H](CS)NC(=O)CNS(=O)(=O)c1cccc2c(N(C)C)cccc12)C(C)C)C(=O)O	geranylgeranyltransferase type-I (Rattus norvegicus, UniProt P53610+Q04631)	substrate, fluorescence	–	30 °C, GGPP 10 µM/enzyme 10 nM, with: GDP 30 µM	–	kcat	0.052 ± 0.013 s⁻¹
CC[C@H](C)[C@H](NC(=O)[C@@H]1CCCN1C(=O)CNC(=O)[C@H](CC(C)C)NC(=O)[C@H](COP(=O)(O)O)NC(=O)[C@H](CC(N)=O)NC(=O)[C@H](CO)NC(=O)[C@H](Cc1c[nH]cn1)NC(=O)[C@H](CCCNC(=N)N)NC(=O)[C@H](CCC(N)=O)NC(=O)[C@H](CC(C)C)NC(C)=O)C(=O)N[C@@H](Cc1ccccc1)C(=O)N[C@@H](CC(=O)O)C(N)=O	14-3-3 protein gamma (YWHAG, Homo sapiens, UniProt P61981)	isothermal titration calorimetry	–	pH 7.4, 37 °C	–	ΔH	-7.6 kcal/mol
COc1cccc([C@@H]2N=C(c3ccc(OC)cc3OC(C)C)N(C(=O)N3CCNC(=O)C3)[C@@H]2c2ccc(Cl)cc2)c1 (relative stereo)	MDM4	isothermal titration calorimetry	–	concentration not given, 298 K	–	binding stoichiometry	1 ± 0.2
CC(=O)C12NC(C)(C)CC1(C)C(=O)C1=C2c2c(c3c4n2C(C)(C)CC2=C4C4(CC(C)(C)NC(C)(C4)C2=O)CC3(C)C)C(=O)C(C)(C)N1 (single isomer, unassigned)	Sodium channel protein type 2 subunit alpha (SCN2A, Homo sapiens, UniProt Q99250)	sodium current	–	1 µM	–	inhibition	5 ± 0.04%
CCN(CC)CCCC(C)Nc1cc(-c2ccccc2)nc2cc(OC)ccc12 (centres unmarked)	Ribosyldihydronicotinamide dehydrogenase [quinone] (NQO2, Homo sapiens, UniProt P16083)	from IC50 by Cheng-Prusoff	–	–	–	binding free energy	-8.59 kcal/mol
CC[C@H](C)[C@H](NC(=O)[C@H](CCCNC(=N)N)NC(=O)[C@H](CO)NC(=O)[C@@H](NC(=O)[C@@H](NC(=O)[C@H](CCCCN)NC(=O)[C@@H](N)C(C)C)[C@@H](C)CC)[C@@H](C)CC)C(=O)N[C@@H](Cc1ccccc1)C(=O)N[C@@H](CO)C(=O)N[C@@H](CCC(N)=O)C(=O)N[C@@H](CCCNC(=N)N)C(=O)N[C@@H](CO)C(=O)N[C@@H](Cc1ccccc1)C(=O)N[C@@H](CCCNC(=N)N)C(=O)N[C@@H](CCCNC(=N)N)C(=O)O	Calcium-dependent protein kinase 34 (CPK34, Arabidopsis thaliana, UniProt Q3E9C0)	peptide phosphorylation, substrate, scintillation proximity	–	20 µM, 24 min, with: 10 µM ATP	relative to: no peptide control, higher = more phosphorylation	relative phosphorylation	31 fold
N#Cc1c(-c2ccc(Cl)cc2Cl)n(-c2nc(-c3ccc(Cl)cc3)c3c(NC(=O)c4ccccc4)nnc-3[nH]2)[nH]c1=O	TK-10	SRB	–	10 µM	–	cell growth	56.2%
CC[C@H](C)[C@H](NC(=O)[C@H](CC(=O)O)NC(=O)[C@@H]1CCCN1C(=O)[C@H](Cc1ccc(O)cc1)NC(=O)[C@H](Cc1ccc(O)cc1)NC(=O)[C@H](Cc1ccc(OS(=O)(=O)O)cc1)NC(=O)[C@H](CC(=O)O)NC(=O)[C@@H](NC(=O)[C@@H](N)C(C)C)[C@@H](C)O)C(=O)O	Protein-tyrosine sulfotransferase 2 (Homo sapiens, UniProt O60704)	sulfation of compound, substrate, LC-MS initial velocity	–	pH 7.5, 30 °C, reaction 2	–	Vmax	1.8 mU/mg protein
C=C(C)C(=O)Nc1ccc(-c2c(-c3ccc(Oc4nccc(C)n4)c(F)c3)c3c(N)ncnc3n2C)cc1	ESS-1	cell growth, CellTiter-Glo	–	120 h, unit not given	relative to: untreated growth rate, higher = stronger inhibition	area over GR curve	0.406
CN1C(=O)CCc2cc(CNC(C)(C)[C@@H](O)c3ccccc3)ccc21	–	–	male CD-1 mouse, brain	subcutaneous, 10 mg/kg	–	AUC(0-inf)	327000 ng·min/mL/g
CCn1c2c(c3ccccc31)CCN(CCCCNC(=O)c1ccc3[nH]c4ccccc4c3c1)C2	D(2) dopamine receptor (DRD2, Homo sapiens, UniProt P14416)	binding	–	10 µM	–	inhibition	19.2 ± 8.3%
CC/C=C\C/C=C\CCC/C=C/C=C/C=C\CCCC(=O)O	DNA topoisomerase 2-alpha (TOP2A, Homo sapiens, UniProt P11388)	catalytic activity, inhibitor, gel	–	with: 2 units topo II, pBR322	–	IC50	2500 ± 300 nM
CCOC(=O)c1c(-c2ccc(Cl)cc2Cl)n(-c2nc(-c3ccc(Cl)cc3)c3c(NC(=O)c4ccccc4)nnc-3[nH]2)[nH]c1=O	TK-10	SRB	–	10 µM	–	cell growth	64%
Cc1ccc(S(=O)(=O)Nc2ccccc2C(=O)Nc2nc(-c3ccccc3)cs2)cc1	Galactokinase (GALK1, Homo sapiens, UniProt P51570)	enzyme activity, inhibitor	–	57 µM	–	maximal inhibition	100%
CC(=O)N[C@@H](C)C(=O)N[C@@H](CCCCN)C(=O)N[C@@H](Cc1ccccc1)C(=O)N[C@@H](CCC(=O)O)C(=O)N[C@@H](CC(=O)O)C(=O)N[C@H](C(=O)N[C@@H](Cc1ccc(OP(=O)(O)O)cc1)C(=O)N[C@@H](C)C(=O)N[C@@H](C)C(N)=O)[C@@H](C)O	PTPN1	substrate, continuous UV	–	pH 7.4, multiply phosphorylated peptides apparent	–	Km	3.5 ± 1 µM
COc1ccc(C2=N[C@@H](c3cccc(Cl)c3)[C@@H](c3ccc(Cl)cc3)N2C(=O)N2CCNC(=O)C2)c(OC(C)C)c1 (relative stereo)	MDM4	isothermal titration calorimetry	–	298 K	–	-TΔS	-1.3 ± 5.2 kcal/mol
CC(C)C[C@H](NC(=O)[C@H](C)NC(=O)[C@H](CCCNC(=N)N)NC(=O)[C@H](CCCNC(=N)N)NC(=O)[C@H](CCCNC(=N)N)NC(=O)[C@H](C)NC(=O)[C@H](CC(C)C)NC(=O)[C@H](CCCNC(=N)N)NC(=O)[C@H](CO)NC(=O)[C@H](CCCCN)NC(=O)[C@H](CO)NC(=O)Cn1cc(COC(=O)[C@]2(C)C=C(C(=O)OC(C)(C)C)C(=O)CC2)nn1)C(=O)O	Mitogen-activated protein kinase 14 (MAPK14, Homo sapiens, UniProt Q16539)	enzyme activity, inhibitor, D-SENSOR kinase	–	0.01016 µM, unit not given	relative to: untreated	remaining activity	0.851 and 1.01 and 1.03

Excerpt of the above:
Structure (SMILES)	tested on	test	system	setting	how to read	endpoint	value
CC[C@H](C)[C@H](NC(=O)[C@@H]1CCCN1C(=O)CNC(=O)[C@H](CC(C)C)NC(=O)[C@H](COP(=O)(O)O)NC(=O)[C@H](CC(N)=O)NC(=O)[C@H](CO)NC(=O)[C@H](Cc1c[nH]cn1)NC(=O)[C@H](CCCNC(=N)N)NC(=O)[C@H](CCC(N)=O)NC(=O)[C@H](CC(C)C)NC(C)=O)C(=O)N[C@@H](Cc1ccccc1)C(=O)N[C@@H](CC(=O)O)C(N)=O	14-3-3 protein gamma (YWHAG, Homo sapiens, UniProt P61981)	isothermal titration calorimetry	–	pH 7.4, 37 °C	–	ΔH	-7.6 kcal/mol
COc1cccc([C@@H]2N=C(c3ccc(OC)cc3OC(C)C)N(C(=O)N3CCNC(=O)C3)[C@@H]2c2ccc(Cl)cc2)c1 (relative stereo)	MDM4	isothermal titration calorimetry	–	concentration not given, 298 K	–	binding stoichiometry	1 ± 0.2
